Measurements of several laboratories.
Protocols differ between the studies behind these lines. “And” joins repeats or separate records; there may be more than shown. ± marks the error that the study gave.
B1: SSC1/SSC3 chimeric SBD; chain TPLSLGIETLGGVFTRLIPRNTTIPTKKSQIFSTAAAGQTSVEIRVFQGERELVRDNKLIGNFTLAGIPPAPKGVPQIEVTFDIDADGIINVSARDKATNKDSSITVAGSSGLSENEIEQMVNDAEKFKSQDEARKQAIETANKADQLANDTENSLKEFEGKVDKAEAQKVRDQITSLKELVSRSQAGDEVNDDDVGTKIDNLRTSSMKLFEQLYKNDSNNNNNNNGNNAESGETKQ
B2: CFH 1108-1231 S1191L/V1197A (Homo sapiens, UniProt P08603); sequence looked up; chain KCGPPPPIDNGDITSFPLSVYAPASSVEYQCQNLYQLEGNKRITCRNGQWSEPPKCLHPCVISREIMENYNIALRWTAKQKLYLRTGESAEFVCKRGYRLSSRSHTLRTTCWDGKLEYPTCAKR
B3: PUX5 301-421 F395A (Arabidopsis thaliana, UniProt Q7Y175); chain KNPFQGVGRTLGASGSGSSSAPQASSAPMNVAPAPSRGLVVDPAAPTTSIQLRLADGTRLVSRFNNHHTVRDVRGFIDASRPGGSKEYQLLTMGAPPKQLTELDQTIEQAGIANAVVIQKF
B4: LLGL2 13-978 (Homo sapiens, UniProt Q6P1M3); phosphorylated serines, Hilyte488 label; chain RERLKRDLFQFNKTVEHGFPHQPSALGYSPSLRILAIGTRSGAIKLYGAPGVEFMGLHQENNAVTQIHLLPGQCQLVTLLDDNSLHLWSLKVKGGASELQEDESFTLRGPPGAAPSATQITVVLPHSSCELLYLGTESGNVFVVQLPAFRALEDRTISSDAVLQRLPEEARHRRVFEMVEALQEHPRDPNQILIGYSRGLVVIWDLQGSRVLYHFLSSQQLENIWWQRDGRLLVSCHSDGSYCQWPVSSEAQQPEPLRSLVPYGPFPCKAITRILWLTTRQGLPFTIFQGGMPRASYGDRHCISVIHDGQQTAFDFTSRVIGFTVLTEADPAATFDDPYALVVLAEEELVVIDLQTAGWPPVQLPYLASLHCSAITCSHHVSNIPLKLWERIIAAGSRQNAHFSTMEWPIDGGTSLTPAPPQRDLLLTGHEDGTVRFWDASGVCLRLLYKLSTVRVFLTDTDPNENFSAQGEDEWPPLRKVGSFDPYSDDPRLGIQKIFLCKYSGYLAVAGTAGQVLVLELNDEAAEQAVEQVEADLLQDQEGYRWKGHERLAARSGPVRFEPGFQPFVLVQCQPPAVVTSLALHSEWRLVAFGTSHGFGLFDHQQRRQVFVKCTLHPSDQLALEGPLSRVKSLKKSLRQSFRRMRRSRVSSRKRHPAGPPGEAQEGSAKAERPGLQNMELAPVQRKIEARSAEDSFTGFVRTLYFADTYLKDSSRHCPSLWAGTNGGTIYAFSLRVPPAERRMDEPVRAEQAKEIQLMHRAPVVGILVLDGHSVPLPEPLEVAHDLSKSPDMQGSHQLLVVSEEQFKVFTLPKVSAKLKLKLTALEGSRVRRVSVAHFGSRRAEDYGEHHLAVLTNLGDIQVVSLPLLKPQVRYSCIRREDVSGIASCVFTKYGQGFYLISPSEFERFSLSTKWLVEPRCLVDSAETKNHRPGNGAGPKKAPSRARNSGTQSDGEEKQPGLVMER
B5: TEPSIN W188S/D189S/E190S/L191S (Homo sapiens, UniProt Q96N21); chain MAAAPPLRDRLSFLHRLPILLKGTSDDDVPCPGYLFEEIAKISHESPGSSQCLLEYLLSRLHSSSGHGKLKVLKILLYLCSHGSSFFLLILKRNSAFIQEAAAFAGPPDPLHGNSLYQKVRAAAQDLGSTLFSDTVLPLAPSQPLGTPPATGMGSQARPHSTLQGFGYSKEHGRTAVRHQPGQAGGGSSSSDSGPSSQNSSQNSDLSRVSDSGSHSGSDSHSGASREPGDLAERVEVVALSDCQQELSLVRTVTRGPRAFLSREEAQHFIKACGLLNCEAVLQLLTCHLRGTSECTQLRALCAIASLGSSDLLPQEHILLRTRPWLQELSMGSPGPVTNKATKILRHFEASCGQLSPARGTSAEPGPTAALPGPSDLLTDAVPLPGSQVFLQPLSSTPVSSRSPAPSSGMPSSPVPTPPPDASPIPAPGDPSEAEARLAESRRWRPERIPGGTDSPKRGPSSCAWSRDSLFAGMELVACPRLVGAGAAAGESCPDAPRAPQTSSQRTAAKEPPGSEPSAFAFLNA
Sequence of UniProt P48067 (whole entry, looked up): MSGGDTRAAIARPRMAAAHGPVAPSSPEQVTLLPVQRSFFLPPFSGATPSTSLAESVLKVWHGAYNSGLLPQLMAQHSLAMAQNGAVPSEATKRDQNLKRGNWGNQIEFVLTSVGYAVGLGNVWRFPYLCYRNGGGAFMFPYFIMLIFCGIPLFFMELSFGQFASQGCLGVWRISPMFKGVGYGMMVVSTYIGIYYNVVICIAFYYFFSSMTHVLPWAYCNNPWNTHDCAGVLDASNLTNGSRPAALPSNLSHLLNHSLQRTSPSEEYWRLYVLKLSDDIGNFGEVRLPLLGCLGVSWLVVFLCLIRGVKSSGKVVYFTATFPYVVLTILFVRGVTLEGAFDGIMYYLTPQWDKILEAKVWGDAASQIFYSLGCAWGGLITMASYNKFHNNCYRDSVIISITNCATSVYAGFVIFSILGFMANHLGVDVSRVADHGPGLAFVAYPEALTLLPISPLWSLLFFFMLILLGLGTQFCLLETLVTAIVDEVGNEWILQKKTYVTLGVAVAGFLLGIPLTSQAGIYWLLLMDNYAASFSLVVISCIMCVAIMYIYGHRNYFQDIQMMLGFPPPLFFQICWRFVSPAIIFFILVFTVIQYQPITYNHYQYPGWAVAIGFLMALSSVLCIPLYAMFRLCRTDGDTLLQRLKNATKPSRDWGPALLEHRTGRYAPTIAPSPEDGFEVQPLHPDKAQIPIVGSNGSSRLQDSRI
Sequence of UniProt Q9H160 (whole entry, looked up): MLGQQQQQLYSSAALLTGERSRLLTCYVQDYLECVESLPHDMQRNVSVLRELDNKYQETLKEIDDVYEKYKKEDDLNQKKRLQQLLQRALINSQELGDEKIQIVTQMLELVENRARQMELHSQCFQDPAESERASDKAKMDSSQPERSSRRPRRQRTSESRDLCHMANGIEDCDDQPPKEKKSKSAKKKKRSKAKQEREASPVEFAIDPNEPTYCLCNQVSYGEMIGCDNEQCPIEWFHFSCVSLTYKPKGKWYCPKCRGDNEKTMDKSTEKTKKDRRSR
Sequence of UniProt P01024 (whole entry, looked up): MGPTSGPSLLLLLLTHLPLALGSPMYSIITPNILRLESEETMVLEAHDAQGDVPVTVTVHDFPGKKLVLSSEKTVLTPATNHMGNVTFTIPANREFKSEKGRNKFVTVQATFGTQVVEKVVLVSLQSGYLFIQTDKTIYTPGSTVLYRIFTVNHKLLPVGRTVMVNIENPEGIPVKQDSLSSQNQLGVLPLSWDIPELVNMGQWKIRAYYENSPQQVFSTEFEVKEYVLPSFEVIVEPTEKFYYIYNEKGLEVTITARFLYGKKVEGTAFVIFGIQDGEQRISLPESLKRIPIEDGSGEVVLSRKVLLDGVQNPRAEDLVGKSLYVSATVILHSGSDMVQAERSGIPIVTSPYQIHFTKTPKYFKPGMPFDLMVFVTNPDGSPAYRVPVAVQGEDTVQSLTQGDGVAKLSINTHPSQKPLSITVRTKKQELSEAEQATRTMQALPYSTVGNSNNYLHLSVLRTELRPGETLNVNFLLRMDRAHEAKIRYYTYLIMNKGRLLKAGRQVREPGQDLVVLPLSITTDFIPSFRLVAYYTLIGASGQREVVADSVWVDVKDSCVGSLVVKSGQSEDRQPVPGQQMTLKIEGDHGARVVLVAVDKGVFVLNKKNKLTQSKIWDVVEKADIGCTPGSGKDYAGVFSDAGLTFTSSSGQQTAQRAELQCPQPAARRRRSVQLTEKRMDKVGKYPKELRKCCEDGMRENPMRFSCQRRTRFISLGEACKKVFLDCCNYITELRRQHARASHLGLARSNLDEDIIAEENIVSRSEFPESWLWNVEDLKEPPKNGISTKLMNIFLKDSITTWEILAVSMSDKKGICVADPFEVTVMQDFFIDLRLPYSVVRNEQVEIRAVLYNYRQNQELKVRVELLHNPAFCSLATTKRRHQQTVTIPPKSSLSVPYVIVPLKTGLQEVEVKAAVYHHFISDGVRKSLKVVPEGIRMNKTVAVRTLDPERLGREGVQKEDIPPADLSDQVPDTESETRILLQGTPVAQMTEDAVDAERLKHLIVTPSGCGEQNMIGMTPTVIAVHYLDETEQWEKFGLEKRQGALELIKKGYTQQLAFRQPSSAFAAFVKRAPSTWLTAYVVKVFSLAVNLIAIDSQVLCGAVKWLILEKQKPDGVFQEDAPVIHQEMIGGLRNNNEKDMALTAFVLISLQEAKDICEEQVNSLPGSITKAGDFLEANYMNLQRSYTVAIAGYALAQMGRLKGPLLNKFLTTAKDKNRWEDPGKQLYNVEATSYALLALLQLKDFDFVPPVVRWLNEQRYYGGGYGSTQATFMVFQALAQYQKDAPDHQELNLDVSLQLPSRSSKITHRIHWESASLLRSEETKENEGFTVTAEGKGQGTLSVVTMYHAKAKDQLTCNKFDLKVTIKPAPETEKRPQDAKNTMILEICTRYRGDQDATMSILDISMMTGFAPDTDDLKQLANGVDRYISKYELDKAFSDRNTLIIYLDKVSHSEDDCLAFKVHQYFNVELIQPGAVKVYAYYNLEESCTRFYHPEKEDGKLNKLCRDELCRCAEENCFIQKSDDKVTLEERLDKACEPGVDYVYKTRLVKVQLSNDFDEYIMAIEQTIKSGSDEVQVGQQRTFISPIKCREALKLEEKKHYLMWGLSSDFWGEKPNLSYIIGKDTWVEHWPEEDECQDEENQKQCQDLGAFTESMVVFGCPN
Sequence of UniProt P54609 (whole entry, looked up): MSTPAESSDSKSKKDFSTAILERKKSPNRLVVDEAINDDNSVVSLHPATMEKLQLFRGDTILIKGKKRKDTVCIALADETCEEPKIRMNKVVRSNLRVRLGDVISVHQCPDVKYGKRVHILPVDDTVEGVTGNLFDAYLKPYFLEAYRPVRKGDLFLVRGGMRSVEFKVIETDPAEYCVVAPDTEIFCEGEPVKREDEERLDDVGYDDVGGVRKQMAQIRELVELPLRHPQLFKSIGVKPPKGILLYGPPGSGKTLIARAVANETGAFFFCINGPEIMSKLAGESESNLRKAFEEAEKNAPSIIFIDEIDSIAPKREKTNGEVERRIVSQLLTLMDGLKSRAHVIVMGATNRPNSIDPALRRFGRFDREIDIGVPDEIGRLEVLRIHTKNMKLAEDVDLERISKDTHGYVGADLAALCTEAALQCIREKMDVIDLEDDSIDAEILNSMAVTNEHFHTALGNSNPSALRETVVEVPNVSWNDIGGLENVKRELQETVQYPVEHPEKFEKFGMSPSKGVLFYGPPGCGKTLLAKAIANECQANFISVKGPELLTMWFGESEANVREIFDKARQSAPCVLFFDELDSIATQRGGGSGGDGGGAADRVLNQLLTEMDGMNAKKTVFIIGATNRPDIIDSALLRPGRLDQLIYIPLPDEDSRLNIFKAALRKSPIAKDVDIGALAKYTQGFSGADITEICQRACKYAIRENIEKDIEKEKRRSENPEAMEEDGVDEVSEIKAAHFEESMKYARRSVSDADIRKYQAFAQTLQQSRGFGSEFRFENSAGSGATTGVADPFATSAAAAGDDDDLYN

Molecule	target or system	test	test system	conditions	how to read	measurement	result
11-deoxycorticosterone	–	stopped-flow global kinetic fitting	–	4-state closed model (best), 10-fold adrenodoxin excess, added: substrate binding k3	–	rate constant	1.65 min⁻¹
colistin	Pseudomonas aeruginosa	broth microdilution	clinical isolate RKI-No_321/16	–	–	MIC	1 µg/mL
B1 (SSC1/SSC3 chimeric SBD)	GOT2 mitochondrial targeting sequence, fluorescein label on cysteine (Gallus gallus)	fluorescence polarization	–	–	–	Kd	20.8 ± 0.983 µM
ARTKQTARKS (histone H3 2-11 (UniProt P68431); K4me2; sequence looked up)	ING2 199-261 (Homo sapiens, UniProt Q9H160)	ITC	peptide	–	–	Kd	4.2 µM and 8.2 µM
methyl-β-cyclodextrin	SLC6A9 (Homo sapiens, UniProt P48067)	transport activity, [3H]glycine uptake	–	2.5 mg/mL, 1 min, added: glycine 300 µM	higher = more transport	glycine uptake rate	53.8 a.u. and 54.1 a.u. and 44.4 a.u. and 43.7 a.u.
ARTKQTARKS (histone H3 1-10; K4me3)	ING2 189-262 E205A (Arabidopsis thaliana, UniProt B3H615)	ITC	peptide	–	–	Kd	8.56 ± 1.34 µM
B2 (CFH 1108-1231 S1191L/V1197A)	C3 996-1303 (Homo sapiens, UniProt P01024)	SPR	–	–	–	Kd	5.2 ± 0.2 µM
F2 thrombin S195A	thrombin mature	BLI	–	–	–	Kd	0.77 ± 0.17 µM
SCN2A fragment Y1916A (Homo sapiens) (sequence not shown)	CALM1 (Homo sapiens, UniProt P0DP23)	fluorescence titration	–	pH 7.4, 22 °C, added: calcium	–	Kd	0.109 µM
KLLMIIHDRREFAKFEKEKMNAKWDTGNNPLYKSAVTTVVNPKYEGK (ITGB1 752-798 E779N/I782L (Homo sapiens, UniProt P05556-1); sequence looked up)	Tln1 309-405 (Mus musculus, UniProt P26039)	NMR titration	–	–	–	Kd	882 µM
B3 (PUX5 301-421 F395A)	CDC48A 1-463 (Arabidopsis thaliana, UniProt P54609)	ITC	–	25 °C	–	Kd	3.3 ± 0.2 µM
B4 (LLGL2 13-978)	PRKCI/PARD6B 1-596, activation loop phosphorylated	fluorescence polarisation	–	added: AMP-PNP	–	Kd	0.0396 µM
Peginesatide	UT7/EPO	tyrosine phosphorylation, LC-MS/MS phosphoproteomics, GluC, item: SHIP2 tyrosine 986	–	10 nM, 15 min, added: 10 U/mL EPO	relative to: vehicle	phosphorylation level	68.6 fold
B5 (TEPSIN W188S/D189S/E190S/L191S)	MAP1LC3B 1-120 (Homo sapiens, UniProt Q9GZQ8)	BLI	–	–	–	Kd	92.3 µM and 96.3 µM and 114 µM and 101 µM
GSGAGKETEC	human MAGI1-3/6 PDZ construct (MBP fusion)	surface plasmon resonance	peptide	concentration not given	higher = stronger binding	normalised SPR binding response	0 normalised RU
SPTBN2 actin-binding domain Y272H (sequence not shown)	ACTA1 F-actin (Oryctolagus cuniculus, UniProt P68135)	co-sedimentation	–	–	–	Kd	15.3 µM

Some of these lines once more:
Molecule	target or system	test	test system	conditions	how to read	measurement	result
KLLMIIHDRREFAKFEKEKMNAKWDTGNNPLYKSAVTTVVNPKYEGK (ITGB1 752-798 E779N/I782L (Homo sapiens, UniProt P05556-1); sequence looked up)	Tln1 309-405 (Mus musculus, UniProt P26039)	NMR titration	–	–	–	Kd	882 µM
B3 (PUX5 301-421 F395A)	CDC48A 1-463 (Arabidopsis thaliana, UniProt P54609)	ITC	–	25 °C	–	Kd	3.3 ± 0.2 µM
